Measurements of several laboratories.
Parts stem from different laboratories: compare values within a part only. Values joined by “and” are separate records of one study, mostly repeats; a detail may differ.
UniProt P51955, sequence (whole entry, looked up): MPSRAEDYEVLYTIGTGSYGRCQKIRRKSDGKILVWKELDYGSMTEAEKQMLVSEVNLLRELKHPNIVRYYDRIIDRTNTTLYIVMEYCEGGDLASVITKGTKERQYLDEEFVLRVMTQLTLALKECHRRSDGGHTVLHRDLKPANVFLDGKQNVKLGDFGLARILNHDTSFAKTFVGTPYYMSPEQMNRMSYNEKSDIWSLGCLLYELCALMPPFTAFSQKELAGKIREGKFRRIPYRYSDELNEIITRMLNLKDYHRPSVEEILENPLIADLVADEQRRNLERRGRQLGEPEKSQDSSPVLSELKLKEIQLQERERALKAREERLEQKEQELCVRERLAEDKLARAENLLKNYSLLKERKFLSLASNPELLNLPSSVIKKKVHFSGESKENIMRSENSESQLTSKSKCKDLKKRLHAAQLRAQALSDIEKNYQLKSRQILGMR
UniProt Q14164, sequence (whole entry, looked up): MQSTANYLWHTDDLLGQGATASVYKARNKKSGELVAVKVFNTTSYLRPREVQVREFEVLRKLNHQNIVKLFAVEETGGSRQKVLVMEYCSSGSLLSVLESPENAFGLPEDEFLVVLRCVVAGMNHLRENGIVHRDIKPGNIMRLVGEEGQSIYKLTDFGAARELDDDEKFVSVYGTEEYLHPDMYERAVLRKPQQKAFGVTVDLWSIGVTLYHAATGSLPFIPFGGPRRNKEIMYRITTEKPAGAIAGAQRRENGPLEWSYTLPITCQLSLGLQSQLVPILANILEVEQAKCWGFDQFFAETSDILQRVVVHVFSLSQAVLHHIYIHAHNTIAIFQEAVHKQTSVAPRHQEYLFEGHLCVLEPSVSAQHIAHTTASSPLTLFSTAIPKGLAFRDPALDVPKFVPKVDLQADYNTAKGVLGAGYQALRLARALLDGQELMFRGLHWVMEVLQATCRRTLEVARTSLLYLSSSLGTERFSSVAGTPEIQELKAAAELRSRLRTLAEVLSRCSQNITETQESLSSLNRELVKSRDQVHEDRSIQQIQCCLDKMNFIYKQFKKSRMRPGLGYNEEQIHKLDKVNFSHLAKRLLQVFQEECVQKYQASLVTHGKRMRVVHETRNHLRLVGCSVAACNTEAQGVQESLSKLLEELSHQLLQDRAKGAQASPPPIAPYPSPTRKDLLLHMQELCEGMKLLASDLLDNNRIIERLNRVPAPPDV
UniProt Q13976, sequence (whole entry, looked up): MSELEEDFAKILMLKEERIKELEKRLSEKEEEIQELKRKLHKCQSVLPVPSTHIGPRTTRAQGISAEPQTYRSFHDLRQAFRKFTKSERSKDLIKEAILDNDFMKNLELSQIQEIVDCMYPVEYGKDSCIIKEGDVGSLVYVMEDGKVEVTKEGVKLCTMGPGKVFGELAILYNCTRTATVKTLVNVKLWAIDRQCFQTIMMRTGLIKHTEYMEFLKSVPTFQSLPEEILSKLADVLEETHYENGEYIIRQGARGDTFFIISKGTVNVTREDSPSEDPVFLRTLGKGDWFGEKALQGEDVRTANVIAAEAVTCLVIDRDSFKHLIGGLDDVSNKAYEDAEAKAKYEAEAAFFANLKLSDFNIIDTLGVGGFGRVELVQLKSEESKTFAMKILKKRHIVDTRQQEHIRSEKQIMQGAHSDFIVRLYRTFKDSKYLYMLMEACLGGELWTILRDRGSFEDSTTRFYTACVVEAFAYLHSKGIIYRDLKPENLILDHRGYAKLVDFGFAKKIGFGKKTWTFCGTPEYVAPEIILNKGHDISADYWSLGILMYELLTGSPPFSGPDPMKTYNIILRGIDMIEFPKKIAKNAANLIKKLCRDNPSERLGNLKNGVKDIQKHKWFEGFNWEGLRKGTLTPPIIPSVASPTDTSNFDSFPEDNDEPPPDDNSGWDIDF
UniProt O14920, sequence (whole entry, looked up): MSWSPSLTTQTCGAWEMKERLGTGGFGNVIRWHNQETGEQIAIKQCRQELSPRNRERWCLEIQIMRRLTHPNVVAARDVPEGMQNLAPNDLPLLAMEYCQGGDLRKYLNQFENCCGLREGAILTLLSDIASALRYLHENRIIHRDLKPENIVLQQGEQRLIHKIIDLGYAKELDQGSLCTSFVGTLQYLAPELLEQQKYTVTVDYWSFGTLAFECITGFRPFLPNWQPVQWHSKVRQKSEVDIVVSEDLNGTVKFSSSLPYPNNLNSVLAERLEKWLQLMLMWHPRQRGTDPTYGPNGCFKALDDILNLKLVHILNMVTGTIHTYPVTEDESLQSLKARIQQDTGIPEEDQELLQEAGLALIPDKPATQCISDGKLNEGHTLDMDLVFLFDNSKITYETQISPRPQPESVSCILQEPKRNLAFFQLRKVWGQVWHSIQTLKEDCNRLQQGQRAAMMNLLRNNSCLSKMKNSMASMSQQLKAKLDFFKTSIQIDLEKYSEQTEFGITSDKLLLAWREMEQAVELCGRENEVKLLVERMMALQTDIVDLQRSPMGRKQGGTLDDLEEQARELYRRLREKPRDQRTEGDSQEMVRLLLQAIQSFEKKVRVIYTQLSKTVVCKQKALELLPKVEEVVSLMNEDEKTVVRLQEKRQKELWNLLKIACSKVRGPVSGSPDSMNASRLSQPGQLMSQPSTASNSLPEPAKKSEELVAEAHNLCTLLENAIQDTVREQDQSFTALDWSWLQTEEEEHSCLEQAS
UniProt P45984, sequence (whole entry, looked up): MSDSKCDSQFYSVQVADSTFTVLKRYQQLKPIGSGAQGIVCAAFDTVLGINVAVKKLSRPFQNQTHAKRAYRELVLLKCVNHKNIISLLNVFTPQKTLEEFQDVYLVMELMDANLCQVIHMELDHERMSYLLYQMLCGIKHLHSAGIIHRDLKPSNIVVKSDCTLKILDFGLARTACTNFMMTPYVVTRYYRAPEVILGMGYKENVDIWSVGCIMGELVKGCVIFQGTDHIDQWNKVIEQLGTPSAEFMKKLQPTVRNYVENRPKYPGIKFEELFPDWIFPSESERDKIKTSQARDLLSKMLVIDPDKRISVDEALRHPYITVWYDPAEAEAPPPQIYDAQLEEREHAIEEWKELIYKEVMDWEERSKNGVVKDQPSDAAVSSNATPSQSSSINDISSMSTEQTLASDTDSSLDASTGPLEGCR
UniProt P37173, sequence (whole entry, looked up): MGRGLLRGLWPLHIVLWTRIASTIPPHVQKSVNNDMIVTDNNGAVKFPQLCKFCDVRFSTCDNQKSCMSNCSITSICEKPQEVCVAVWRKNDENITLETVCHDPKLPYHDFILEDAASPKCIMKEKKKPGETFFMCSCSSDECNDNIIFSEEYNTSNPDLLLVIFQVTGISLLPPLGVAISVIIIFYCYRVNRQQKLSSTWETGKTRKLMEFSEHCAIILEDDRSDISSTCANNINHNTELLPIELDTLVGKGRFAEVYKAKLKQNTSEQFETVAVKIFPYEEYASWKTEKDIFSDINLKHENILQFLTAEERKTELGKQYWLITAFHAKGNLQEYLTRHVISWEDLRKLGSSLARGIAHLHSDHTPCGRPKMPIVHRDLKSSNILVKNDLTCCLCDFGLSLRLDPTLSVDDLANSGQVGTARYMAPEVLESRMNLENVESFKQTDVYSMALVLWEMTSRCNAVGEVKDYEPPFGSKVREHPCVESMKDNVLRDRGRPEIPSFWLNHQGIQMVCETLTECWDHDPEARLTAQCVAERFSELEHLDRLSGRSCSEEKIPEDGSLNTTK
UniProt P35626, sequence (whole entry, looked up): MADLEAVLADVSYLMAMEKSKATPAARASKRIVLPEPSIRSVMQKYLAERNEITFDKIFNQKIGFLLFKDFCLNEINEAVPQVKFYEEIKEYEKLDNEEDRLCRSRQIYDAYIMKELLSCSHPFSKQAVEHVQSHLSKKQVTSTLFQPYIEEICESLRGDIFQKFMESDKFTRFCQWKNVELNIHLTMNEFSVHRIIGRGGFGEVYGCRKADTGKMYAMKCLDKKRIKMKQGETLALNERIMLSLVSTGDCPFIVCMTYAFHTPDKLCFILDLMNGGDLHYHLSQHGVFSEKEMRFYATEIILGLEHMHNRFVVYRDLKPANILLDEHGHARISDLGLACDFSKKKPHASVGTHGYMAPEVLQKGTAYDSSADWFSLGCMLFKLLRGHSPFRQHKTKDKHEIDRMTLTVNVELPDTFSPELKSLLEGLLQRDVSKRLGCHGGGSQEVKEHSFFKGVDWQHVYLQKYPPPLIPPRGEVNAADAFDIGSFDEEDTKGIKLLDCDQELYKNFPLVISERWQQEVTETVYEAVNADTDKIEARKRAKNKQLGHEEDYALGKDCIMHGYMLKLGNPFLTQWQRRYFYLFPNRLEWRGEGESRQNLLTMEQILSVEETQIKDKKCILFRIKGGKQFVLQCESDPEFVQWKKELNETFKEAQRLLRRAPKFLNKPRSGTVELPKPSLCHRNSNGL
UniProt P11802, sequence (whole entry, looked up): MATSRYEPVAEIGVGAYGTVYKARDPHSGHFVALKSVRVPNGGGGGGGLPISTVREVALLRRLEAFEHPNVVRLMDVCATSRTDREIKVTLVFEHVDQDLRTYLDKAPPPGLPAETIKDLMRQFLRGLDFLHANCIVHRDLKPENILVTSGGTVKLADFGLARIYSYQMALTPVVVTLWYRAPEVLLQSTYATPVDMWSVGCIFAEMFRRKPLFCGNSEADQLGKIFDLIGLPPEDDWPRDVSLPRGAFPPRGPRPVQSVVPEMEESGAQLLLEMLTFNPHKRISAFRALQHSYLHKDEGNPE
UniProt Q9UIK4, sequence (whole entry, looked up): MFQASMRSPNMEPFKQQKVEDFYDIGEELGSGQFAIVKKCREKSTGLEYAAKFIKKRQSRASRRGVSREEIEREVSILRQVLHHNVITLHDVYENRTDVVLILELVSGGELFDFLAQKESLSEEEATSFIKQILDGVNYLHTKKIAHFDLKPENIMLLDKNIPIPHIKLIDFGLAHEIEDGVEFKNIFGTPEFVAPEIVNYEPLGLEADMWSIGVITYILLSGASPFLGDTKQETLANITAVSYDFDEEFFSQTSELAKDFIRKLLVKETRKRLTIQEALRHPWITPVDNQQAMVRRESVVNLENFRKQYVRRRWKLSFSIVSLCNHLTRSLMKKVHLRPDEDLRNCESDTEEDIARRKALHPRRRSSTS

Sample 1 — cell line: HEK293; technique: CellTiter-Glo; reference: vehicle
Structure (SMILES): CC(=O)N1CCN(c2nc(OC[C@@H]3CCCN3C)nc3c2CCN(c2cccc4cccc(Cl)c24)C3)C[C@@H]1CC#N
setting | viability
40 µM | 0.01%
625 nM | 81.8% and 98.9% and 89.6%
10 µM | 13.1% and 20.7% and 17.1%
5 µM | 24.5% and 29.8% and 28.9%
2.5 µM | 49.9% and 40.1% and 43.5%

Sample 2 — cell line: mouse MPNST tumor cells; technique: high-content nuclear imaging; item: cell number; concentration: 10 µM; time: 12 h; setting: mean of 2 replicates; reference: plate mean; reading: higher = more cells
SMILES | nuclei count [z-score]
CCOC(=O)[N-]c1c[n+](N2CCOCC2)no1 | 0.166
Nc1ncnc2c1ncn2[C@@H]1O[C@H](CO)[C@@H](O)[C@@H]1O | 1.28
Cc1ccccc1COc1ccc(C2C3=C(CC(C)(C)CC3=O)OC3=C2C(=O)CC(C)(C)C3)cc1 | 2.29
COc1ccc(CN2CCN(C(c3ccc(F)cc3)c3ccc(F)cc3)CC2)c(OC)c1OC | -0.54
Cc1ccc2cc(-c3c(C)ccc(C(=O)c4c(-c5ccccc5)n(C)n(-c5ccccc5)c4=O)c3N)ccc2n1 | 2.33
C#Cc1cccc(Nc2ncnc3cc(OCCOC)c(OCCOC)cc23)c1 | 2.43
COc1c(C)c2c(c(O)c1C/C=C(\C)CCC(=O)OCCN1CCOCC1)C(=O)OC2 | -2.66
CC(C)(C)c1ccc(S(=O)(=O)/C=C/C#N)cc1 | -5.58
Cn1ccc2cc(NC(=O)Nc3cccnc3)ccc21 | 1.35
CCN(CC)C(=O)c1ccc(Nc2nc(OCC3CCCCC3)c3[nH]cnc3n2)cc1 | -2.76

Sample 3 — observed: enzyme activity; mode: inhibitor; concentration: 0.5 µM; reference: control
Structure (SMILES): c1ccc(-c2cnc(Nc3ccc(OCCN4CCCC4)cc3)s2)cc1
target | remaining activity
IKBKB (Homo sapiens, UniProt O14920) | 98.1%
Protein kinase C beta type, isoform beta-I (PRKCB, Homo sapiens, UniProt P05771) | 108%
NEK2 (Homo sapiens, UniProt P51955) | 90.6%
Cyclin-dependent kinase 5, with p25 (CDK5, Homo sapiens, UniProt Q00535) | 80.7%
IKBKE (Homo sapiens, UniProt Q14164) | 81.6%
CAMKK2 (Homo sapiens, UniProt Q96RR4) | 89.4%
cGMP-dependent protein kinase 1, isoform beta (PRKG1, Homo sapiens, UniProt Q13976) | 96.7%
CHEK2 (Homo sapiens, UniProt O96017) | 99.4%
OXSR1 (Homo sapiens, UniProt O95747) | 85.3%
DAPK1 (Homo sapiens, UniProt P53355) | 95.1%
Tyrosine-protein kinase Lyn, isoform B (LYN, Homo sapiens, UniProt P07948) | 87.5%
PRKACA (Homo sapiens, UniProt P17612) | 102%
GRK3 (Homo sapiens, UniProt P35626) | 103%
DAPK2 (Homo sapiens, UniProt Q9UIK4) | 90.3%
TGFBR1 (Homo sapiens, UniProt P36897) | 97%
Cyclin-dependent kinase 4, with cyclin D1 (CDK4, Homo sapiens, UniProt P11802) | 61.2%
PRKCA (Homo sapiens, UniProt P17252) | 106%
STK10 (Homo sapiens, UniProt O94804) | 76.9%
MAP3K3 (Homo sapiens, UniProt Q99759) | 99.2%
STK39 (Homo sapiens, UniProt Q9UEW8) | 75.4%
TGFBR2 (Homo sapiens, UniProt P37173) | 129%
CAMK2D (Homo sapiens, UniProt Q13557) | 48.2%
MAPK9 (Homo sapiens, UniProt P45984) | 144%

Sample 4 — cell line: normal-adjacent organoid sample F; technique: CellTiter-Glo; concentration: 0.1 µM; setting: replicate mean; reference: DMSO
Compound | viability [%]
CN(C)C(=O)Cn1cc(-c2nc([C@@](C)(c3ccc(-c4cnc(N)nc4)cc3)C3CC3)no2)cn1 | 104
CS(=O)(=O)N1CCCC(NC(=O)[C@H](CCC2CCCCC2)NC(=O)c2ccc(CNC(=O)c3cnc4ccccn34)cc2)C1 (some centres unmarked) | 131
O=C(NCCCC1CCCCC1)c1ccc(CNC(=O)c2cnn(-c3ccccc3)c2C(F)(F)F)cc1 | 107
Cc1cc(Nc2nccc(C)n2)cc(-c2cnc([C@@]3(O)CC[C@H](C(=O)O)C(C)(C)C3)s2)c1 | 107
CN1C(=O)[C@@H](N2CCc3c(nn(Cc4ccccc4)c3Br)C2=O)COc2ccccc21 | 156
CCOC(=O)c1cc2cc(-c3cc(C(=O)NCc4ccc(C(=O)O)cc4)nn3C)ccc2[nH]1 | 110
O=C(N[C@H]1CCCCC/C=C\C2C[C@@]2(C(=O)O)NC(=O)[C@@H]2C[C@@H](Oc3ccncc3)CN2C1=O)OC1CCCC1 (some centres unmarked) | 95.4
CN1C(=O)[C@@H](N2CCc3cn(Cc4ccccc4)nc3C2=O)COc2ccccc21 | 142
CCCOc1ccc([C@H]2[C@H](C(=O)O)[C@@H](c3ccc4c(c3)OCO4)CN2CC(=O)Nc2c(CC)cccc2CC)cc1 | 125
C[C@@H]1CN(c2cc(-c3n[nH]c4ccc(OC5(C)CC5)cc34)ncn2)C[C@H](C)O1 | 110
Cc1nc(Cc2cccc(C(F)(F)F)c2)sc1-c1ccc(C(N)=O)nc1 | 110
COc1cccc(CNC(=O)c2nc3scc(COCc4ccc(C(=O)O)cc4)c3c(=O)[nH]2)c1 | 111
O=C(NCc1ncc(C(F)(F)F)cc1Cl)c1ccc2c(c1)C1(CCS(=O)(=O)CC1)[C@H](C1CC1)N2S(=O)(=O)c1ccc(F)cc1 | 104
Cc1c(NC(=O)c2cc(C(N)=O)nc3cc(F)ccc23)c(C(F)(F)F)nn1Cc1ccc(C(C)(C)C)cc1 | 112
COc1cc(N[C@@H]2CCCC[C@]2(O)C(F)(F)F)ccc1F | 102
COc1ccc2cc(OCC3(C(=O)O)CN(C(=O)c4ccc(F)cc4)C3)ccc2c1 | 136
O=C(c1ccc(F)cc1)N1CC(COc2ccc(Br)cc2)(C(=O)O)C1 | 104
N#Cc1ccc(Nc2ccc3[nH]c(=O)[nH]c3c2)c(Cl)c1 | 113
CS(=O)(=O)NCC[C@H](NC(=O)c1cncc2c1cnn2-c1ccc(F)cc1)c1ccnc(S(C)(=O)=O)c1 | 149
CC(C)CC(=O)N1CCc2nc(-c3ccc(Br)cc3)nc(N(C)Cc3ccccc3)c2C1 | 116
CCS(=O)(=O)c1cc2cc(C[C@@](O)(CC(C)(C)c3ccc(F)cc3C(N)=O)C(F)(F)F)[nH]c2cn1 | 107
